Published values from different studies.
Every numbered part comes from another study and shows a few of its results, in no order.

Set 1 — technique: protein-binding microarray; molecule type: double-stranded DNA, one strand shown; sample: in vitro; tested at: 250 nM; notes: 60-bp whole probe; together with: salmon DNA 0.4 mg/ml; baseline: random background probes; reading: higher = stronger binding; shared flanks, not repeated: GCCTAGCAC … GTCTTGATTCGCTTGACGCTGCTG
Target: Interferon regulatory factor 5, full length, phosphomimetic (IRF5, Homo sapiens, UniProt Q13568-2, residues 1-514, K96S/S451D/S453D/S456D/S462D)
| Oligonucleotide | log fluorescence |
| --- | --- |
| GACGATATCAGCTTCGAGACGTGCTAG | 0.719 z-score |
| TTAGGTGCCGGTTTCGGTTAGTGCTAG | 8.39 z-score |
| TTAGATCTCAGTTTCGATGAGTGCTAG | 8.42 z-score |
| CCAGAGTCCTGTTTGATAATGTGCTAG | -0.3 z-score |
| GACGATATCATTCTCGAGACGTGCTAG | 1.06 z-score |
| GACGGTCTCCTTCTCCTTACGTGCTAG | -0.205 z-score |
| TTAGGTTCCCTTGTCCTTTAGTGCTAG | 0.0104 z-score |
| TTAGGTTTCGTACTGGGTTAGTGCTAG | 4.06 z-score |
| TTAGGACTGGACTATGGGTTAGTGCTA | -0.336 z-score |
| ATGCCTTTCTCTTGGAGCTTGTGCTAG | 0.946 z-score |
| TTAGGTATCGGTATCGGATAGTGCTAG | 8.06 z-score |
| TTAGATATCAGTATCGATTAGTGCTAG | 8.11 z-score |
| GACGGACTGCTACTGTTGACGTGCTAG | -0.526 z-score |
| TTAGGTATCGGGTATCGCTTAGTGCTA | 4.71 z-score |
| TTAAATTTCGGGTATCGATTAGTGCTA | 8.46 z-score |
| TTAGGACTGGGTCTCAGTTAGTGCTAG | -0.444 z-score |
| CTAGTTGTGATTCTTTCGATGTGCTAG | 5.69 z-score |
| TTAGGTTTCGGTAGCGGTTAGTGCTAG | 9.87 z-score |
| TTAGATATCACTTTCGATTAGTGCTAG | 11 z-score |

Set 2 — technique: RNA Bind-n-Seq; molecule type: RNA; sample: in vitro; tested at: 365 nM; baseline: no-protein control; reading: higher = stronger binding
Target: RNA binding protein fox-1 homolog 2, RRM domain, GST-SBP tag (RBFOX2, Homo sapiens, UniProt O43251-10, residues 100-194)
Notes: natural RNA segment, single round, ends assumed
Shared flanks, not repeated: GGGAGUUCUACAGUCCGACGAUC … UGGAAUUCUCGGGUGCCAA
Target sequence (chain): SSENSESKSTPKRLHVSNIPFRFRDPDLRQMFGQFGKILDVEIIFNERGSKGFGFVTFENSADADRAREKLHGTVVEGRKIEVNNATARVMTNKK
| Oligonucleotide | RBNS enrichment (R) |
| --- | --- |
| AGUUUCAGUGUUAGAUACAGUUUUUUCCACCAUACAUCUGUGCAUUUUCUCUUUAGGUGACUGUUUAAGAAAUUUGUGUGCAUAGUUACUCAGUUUUUAUGAACUGUUGU | 1.47 |
| GCAGGCUCCAGCAGCUCCCUUCUUCCUUCCCUCUGUGCCCGUGGCGUCUGCUUCCCAUCCUGGGAGUGUGUAUAUAUGUAGCAUAUCAUGGGGGACUGGGAAGUUGGGAG | 0.207 |
| GUAAAGAAUGUUUGUACUGUUCCAAAACCCAGGCUUCUUUAUUCCUUUACCACUAUCCAUGUGAGCAUUGACAAAUCAUGGCUUAGAGGUGCUCACUGACUCGCUAAGAC | 0.269 |
| CACCUGAGAAAGAGCUGAUUUUGUAUUUCAGGUUUGAAAAGAAAUAACUGAACAUAUUUUUUAGGCAAGUCAGAAAGAGAACAUGGUCACCCAAAAGCAACUGUAACUCA | 1.21 |
| AAUAAAAUCAGGAGUUUGUACAAAAGUUAAAUGGAACAUUAUAAUUAUUUUAAGUAAUGUUAAUUGAAAAAAUUUUUUCUUUUUGACAAUAUAAAAAACAUUUUAAAUUU | 0.825 |
| ACCACAGGACUGCAGGGUGCACAACUCCCCUGCCAAGGAAAACCAUGCAGUCCUCCCCUCCCUGGUCUCCUGCUUCAGCUCUGUACAACGAGGGCAAAGAUGCUAAAUCU | 0.398 |
| CGAGUUUCGUAUUAACCUUUCCUGUCCAUGUAACAACUUCAUGACCAUUACUGCAUUGUCAAAUUCCUACUGACGACAUUAUAACUGUACGGGAGCUUAACUUUAUAAGG | 0.496 |
| CCCUCCCACCUGGCAUGGUAAGGGGGUAAGGGACGCUCAGGGAAGAGGUGCAUUCUCCGACCUCUGCCUCAGGCCUGAGGACGCCCACUGGGAGCUGGGGCAUUUCCAUC | 3.05 |

Set 3 — technique: protein binding microarray; molecule type: double-stranded DNA, one strand shown; sample: in vitro; tested at: not given; baseline: not given; reading: higher = stronger binding
Target: Histone acetyltransferase KAT6A, winged helix 2, GST fusion (KAT6A, Homo sapiens, UniProt Q92794, residues 85-181)
Notes: 8-mer, flanks averaged, mean of 2 arrays, mostly near background
Residues (chain): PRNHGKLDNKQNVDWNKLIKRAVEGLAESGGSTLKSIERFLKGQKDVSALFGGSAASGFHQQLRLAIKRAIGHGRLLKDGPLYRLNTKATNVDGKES
| Oligonucleotide | E-score |
| --- | --- |
| GTGTGAAC | 0.0286 |
| CACGCCTC | 0.0409 |
| TGCGCACA | 0.106 |
| AACTCTCG | 0.00345 |
| CTGCAACA | 0.0884 |
| AGAGCCCG | 0.113 |
| AGACGACA | -0.0877 |
| CAATTCCA | 0.0431 |
| AAATTTCA | -0.104 |
| GTTCGACA | 0.196 |
| AATTACTA | -0.0802 |
| ACTGGAGG | 0.0705 |
| GGCTAACA | 0.0279 |
| ACACTCCA | -0.0926 |
| TCATTAGA | 0.169 |
| CTGAATAA | -0.00994 |
| CACTAGCG | 0.0263 |
| GCGGGTTA | 0.0136 |
| CAACGTCA | -0.134 |

Set 4 — technique: RNA Bind-n-Seq; molecule type: RNA; sample: in vitro; tested at: 200 nM; notes: whole 134-nt RNA, ends assumed; together with: 150 mM KCl; baseline: input library; reading: higher = stronger binding
Target: Ras GTPase-activating protein-binding protein 1, full length (G3BP1, Homo sapiens, UniProt Q13283)
Chain of UniProt Q13283 (whole entry, looked up): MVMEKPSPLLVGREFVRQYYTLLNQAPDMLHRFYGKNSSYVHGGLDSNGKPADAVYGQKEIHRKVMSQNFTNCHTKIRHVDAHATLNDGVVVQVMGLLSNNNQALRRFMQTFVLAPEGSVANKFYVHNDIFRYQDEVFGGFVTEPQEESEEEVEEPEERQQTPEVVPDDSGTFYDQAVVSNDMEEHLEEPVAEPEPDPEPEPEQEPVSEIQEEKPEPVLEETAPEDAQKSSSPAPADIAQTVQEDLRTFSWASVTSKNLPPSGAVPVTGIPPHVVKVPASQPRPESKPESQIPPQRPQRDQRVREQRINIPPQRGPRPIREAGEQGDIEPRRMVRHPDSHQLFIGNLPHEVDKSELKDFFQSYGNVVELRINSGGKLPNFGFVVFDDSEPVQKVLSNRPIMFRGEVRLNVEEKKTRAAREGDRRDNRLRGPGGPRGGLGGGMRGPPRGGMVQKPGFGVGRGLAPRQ
Shared flanks, not repeated: GGGAGUUCUACAGUCCGACGAUC … UGGAAUUCUCGGGUGUCAAGG
| Oligonucleotide | log2 enrichment |
| --- | --- |
| UGGGAGGUGGAUUUUGUUUAUUUUUUUAGCUCAUUUGCAGGGGUGGGAAUUUUUUUUUAAUAUGUGUCAUGAAUAAAGUUGUUUUUGAAA | 0.297 |
| AGUCCUGUGCUACACAUCGUAUGUACCGAAUCGGGGCCCCGGGCCCCGGGCCCCGGGGAAAGUAUUAUGUUACGCCGUUCGGAUCUGCAC | -0.581 |
| AAGUCCUGUGCUACACAUCGUAUGUACCGAAUCGGGUGGGUUUUUGGGUUUUUGGGAAAGUAUUAUGUUACGCCGUUCGGAUCUGCACUU | -0.292 |
| CAAGUCCUGUGCUACACAUCGUAUGUACCGAAUCGGAAAAGGAAAAGGGGAAAAGGAAAGUAUUAUGUUACGCCGUUCGGAUCUGCACUU | -0.812 |
| UAACUUUAGAGGAGGAUCUGAUGGAUAUGGCAGUGGACGUGGAUUUGGGGAUGGCUAUAAUGGGUAUGGAGGAGGAUCUGGAGGUGGCAA | 0.39 |
| CUCAAGUCCUGUGCUACACAUCGUAUGUACCGAAUCGGUGGUUUUUUUGGAGGAAAGUAUUAUGUUACGCCGUUCGGAUCUGCACUUCCA | -0.254 |
| AAGUCCUGUGCUACACAUCGUAUGUACCGAAUCGGGAAAAGGAAAAGGGGAAAAGGGAAAGUAUUAUGUUACGCCGUUCGGAUCUGCACU | -0.465 |
| ACCAUGCAGGUGGGCAUCUUUGGGAAGUGGGGCAAGGGGGGGCUAGGGAGGGGGGUAACACUUUGGGAACAGGUGGUCCCAGGUCGUUUC | 1.17 |
| UGUCCCUGACUCUCCAUUUCCCCAUCUGAGUGGAUUUGGACCUAAUAGGGCACUGGAGCUGGUUCGAAUCCUGACUGGACUACUUGGCAA | 0.344 |
